Assay results collected from several papers.
Each numbered part is a random draw from the data of one study; scales do not carry over between parts. Changes are numbered by the printed parent chain.
Sequence of UniProt Q9NPD8 (whole entry, looked up): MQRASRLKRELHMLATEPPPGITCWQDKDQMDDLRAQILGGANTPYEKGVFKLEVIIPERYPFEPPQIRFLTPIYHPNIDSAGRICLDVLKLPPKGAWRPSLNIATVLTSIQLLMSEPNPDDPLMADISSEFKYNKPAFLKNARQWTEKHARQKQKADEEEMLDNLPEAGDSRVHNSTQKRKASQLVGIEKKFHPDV
Sequence of UniProt Q9NR09 (whole entry, looked up): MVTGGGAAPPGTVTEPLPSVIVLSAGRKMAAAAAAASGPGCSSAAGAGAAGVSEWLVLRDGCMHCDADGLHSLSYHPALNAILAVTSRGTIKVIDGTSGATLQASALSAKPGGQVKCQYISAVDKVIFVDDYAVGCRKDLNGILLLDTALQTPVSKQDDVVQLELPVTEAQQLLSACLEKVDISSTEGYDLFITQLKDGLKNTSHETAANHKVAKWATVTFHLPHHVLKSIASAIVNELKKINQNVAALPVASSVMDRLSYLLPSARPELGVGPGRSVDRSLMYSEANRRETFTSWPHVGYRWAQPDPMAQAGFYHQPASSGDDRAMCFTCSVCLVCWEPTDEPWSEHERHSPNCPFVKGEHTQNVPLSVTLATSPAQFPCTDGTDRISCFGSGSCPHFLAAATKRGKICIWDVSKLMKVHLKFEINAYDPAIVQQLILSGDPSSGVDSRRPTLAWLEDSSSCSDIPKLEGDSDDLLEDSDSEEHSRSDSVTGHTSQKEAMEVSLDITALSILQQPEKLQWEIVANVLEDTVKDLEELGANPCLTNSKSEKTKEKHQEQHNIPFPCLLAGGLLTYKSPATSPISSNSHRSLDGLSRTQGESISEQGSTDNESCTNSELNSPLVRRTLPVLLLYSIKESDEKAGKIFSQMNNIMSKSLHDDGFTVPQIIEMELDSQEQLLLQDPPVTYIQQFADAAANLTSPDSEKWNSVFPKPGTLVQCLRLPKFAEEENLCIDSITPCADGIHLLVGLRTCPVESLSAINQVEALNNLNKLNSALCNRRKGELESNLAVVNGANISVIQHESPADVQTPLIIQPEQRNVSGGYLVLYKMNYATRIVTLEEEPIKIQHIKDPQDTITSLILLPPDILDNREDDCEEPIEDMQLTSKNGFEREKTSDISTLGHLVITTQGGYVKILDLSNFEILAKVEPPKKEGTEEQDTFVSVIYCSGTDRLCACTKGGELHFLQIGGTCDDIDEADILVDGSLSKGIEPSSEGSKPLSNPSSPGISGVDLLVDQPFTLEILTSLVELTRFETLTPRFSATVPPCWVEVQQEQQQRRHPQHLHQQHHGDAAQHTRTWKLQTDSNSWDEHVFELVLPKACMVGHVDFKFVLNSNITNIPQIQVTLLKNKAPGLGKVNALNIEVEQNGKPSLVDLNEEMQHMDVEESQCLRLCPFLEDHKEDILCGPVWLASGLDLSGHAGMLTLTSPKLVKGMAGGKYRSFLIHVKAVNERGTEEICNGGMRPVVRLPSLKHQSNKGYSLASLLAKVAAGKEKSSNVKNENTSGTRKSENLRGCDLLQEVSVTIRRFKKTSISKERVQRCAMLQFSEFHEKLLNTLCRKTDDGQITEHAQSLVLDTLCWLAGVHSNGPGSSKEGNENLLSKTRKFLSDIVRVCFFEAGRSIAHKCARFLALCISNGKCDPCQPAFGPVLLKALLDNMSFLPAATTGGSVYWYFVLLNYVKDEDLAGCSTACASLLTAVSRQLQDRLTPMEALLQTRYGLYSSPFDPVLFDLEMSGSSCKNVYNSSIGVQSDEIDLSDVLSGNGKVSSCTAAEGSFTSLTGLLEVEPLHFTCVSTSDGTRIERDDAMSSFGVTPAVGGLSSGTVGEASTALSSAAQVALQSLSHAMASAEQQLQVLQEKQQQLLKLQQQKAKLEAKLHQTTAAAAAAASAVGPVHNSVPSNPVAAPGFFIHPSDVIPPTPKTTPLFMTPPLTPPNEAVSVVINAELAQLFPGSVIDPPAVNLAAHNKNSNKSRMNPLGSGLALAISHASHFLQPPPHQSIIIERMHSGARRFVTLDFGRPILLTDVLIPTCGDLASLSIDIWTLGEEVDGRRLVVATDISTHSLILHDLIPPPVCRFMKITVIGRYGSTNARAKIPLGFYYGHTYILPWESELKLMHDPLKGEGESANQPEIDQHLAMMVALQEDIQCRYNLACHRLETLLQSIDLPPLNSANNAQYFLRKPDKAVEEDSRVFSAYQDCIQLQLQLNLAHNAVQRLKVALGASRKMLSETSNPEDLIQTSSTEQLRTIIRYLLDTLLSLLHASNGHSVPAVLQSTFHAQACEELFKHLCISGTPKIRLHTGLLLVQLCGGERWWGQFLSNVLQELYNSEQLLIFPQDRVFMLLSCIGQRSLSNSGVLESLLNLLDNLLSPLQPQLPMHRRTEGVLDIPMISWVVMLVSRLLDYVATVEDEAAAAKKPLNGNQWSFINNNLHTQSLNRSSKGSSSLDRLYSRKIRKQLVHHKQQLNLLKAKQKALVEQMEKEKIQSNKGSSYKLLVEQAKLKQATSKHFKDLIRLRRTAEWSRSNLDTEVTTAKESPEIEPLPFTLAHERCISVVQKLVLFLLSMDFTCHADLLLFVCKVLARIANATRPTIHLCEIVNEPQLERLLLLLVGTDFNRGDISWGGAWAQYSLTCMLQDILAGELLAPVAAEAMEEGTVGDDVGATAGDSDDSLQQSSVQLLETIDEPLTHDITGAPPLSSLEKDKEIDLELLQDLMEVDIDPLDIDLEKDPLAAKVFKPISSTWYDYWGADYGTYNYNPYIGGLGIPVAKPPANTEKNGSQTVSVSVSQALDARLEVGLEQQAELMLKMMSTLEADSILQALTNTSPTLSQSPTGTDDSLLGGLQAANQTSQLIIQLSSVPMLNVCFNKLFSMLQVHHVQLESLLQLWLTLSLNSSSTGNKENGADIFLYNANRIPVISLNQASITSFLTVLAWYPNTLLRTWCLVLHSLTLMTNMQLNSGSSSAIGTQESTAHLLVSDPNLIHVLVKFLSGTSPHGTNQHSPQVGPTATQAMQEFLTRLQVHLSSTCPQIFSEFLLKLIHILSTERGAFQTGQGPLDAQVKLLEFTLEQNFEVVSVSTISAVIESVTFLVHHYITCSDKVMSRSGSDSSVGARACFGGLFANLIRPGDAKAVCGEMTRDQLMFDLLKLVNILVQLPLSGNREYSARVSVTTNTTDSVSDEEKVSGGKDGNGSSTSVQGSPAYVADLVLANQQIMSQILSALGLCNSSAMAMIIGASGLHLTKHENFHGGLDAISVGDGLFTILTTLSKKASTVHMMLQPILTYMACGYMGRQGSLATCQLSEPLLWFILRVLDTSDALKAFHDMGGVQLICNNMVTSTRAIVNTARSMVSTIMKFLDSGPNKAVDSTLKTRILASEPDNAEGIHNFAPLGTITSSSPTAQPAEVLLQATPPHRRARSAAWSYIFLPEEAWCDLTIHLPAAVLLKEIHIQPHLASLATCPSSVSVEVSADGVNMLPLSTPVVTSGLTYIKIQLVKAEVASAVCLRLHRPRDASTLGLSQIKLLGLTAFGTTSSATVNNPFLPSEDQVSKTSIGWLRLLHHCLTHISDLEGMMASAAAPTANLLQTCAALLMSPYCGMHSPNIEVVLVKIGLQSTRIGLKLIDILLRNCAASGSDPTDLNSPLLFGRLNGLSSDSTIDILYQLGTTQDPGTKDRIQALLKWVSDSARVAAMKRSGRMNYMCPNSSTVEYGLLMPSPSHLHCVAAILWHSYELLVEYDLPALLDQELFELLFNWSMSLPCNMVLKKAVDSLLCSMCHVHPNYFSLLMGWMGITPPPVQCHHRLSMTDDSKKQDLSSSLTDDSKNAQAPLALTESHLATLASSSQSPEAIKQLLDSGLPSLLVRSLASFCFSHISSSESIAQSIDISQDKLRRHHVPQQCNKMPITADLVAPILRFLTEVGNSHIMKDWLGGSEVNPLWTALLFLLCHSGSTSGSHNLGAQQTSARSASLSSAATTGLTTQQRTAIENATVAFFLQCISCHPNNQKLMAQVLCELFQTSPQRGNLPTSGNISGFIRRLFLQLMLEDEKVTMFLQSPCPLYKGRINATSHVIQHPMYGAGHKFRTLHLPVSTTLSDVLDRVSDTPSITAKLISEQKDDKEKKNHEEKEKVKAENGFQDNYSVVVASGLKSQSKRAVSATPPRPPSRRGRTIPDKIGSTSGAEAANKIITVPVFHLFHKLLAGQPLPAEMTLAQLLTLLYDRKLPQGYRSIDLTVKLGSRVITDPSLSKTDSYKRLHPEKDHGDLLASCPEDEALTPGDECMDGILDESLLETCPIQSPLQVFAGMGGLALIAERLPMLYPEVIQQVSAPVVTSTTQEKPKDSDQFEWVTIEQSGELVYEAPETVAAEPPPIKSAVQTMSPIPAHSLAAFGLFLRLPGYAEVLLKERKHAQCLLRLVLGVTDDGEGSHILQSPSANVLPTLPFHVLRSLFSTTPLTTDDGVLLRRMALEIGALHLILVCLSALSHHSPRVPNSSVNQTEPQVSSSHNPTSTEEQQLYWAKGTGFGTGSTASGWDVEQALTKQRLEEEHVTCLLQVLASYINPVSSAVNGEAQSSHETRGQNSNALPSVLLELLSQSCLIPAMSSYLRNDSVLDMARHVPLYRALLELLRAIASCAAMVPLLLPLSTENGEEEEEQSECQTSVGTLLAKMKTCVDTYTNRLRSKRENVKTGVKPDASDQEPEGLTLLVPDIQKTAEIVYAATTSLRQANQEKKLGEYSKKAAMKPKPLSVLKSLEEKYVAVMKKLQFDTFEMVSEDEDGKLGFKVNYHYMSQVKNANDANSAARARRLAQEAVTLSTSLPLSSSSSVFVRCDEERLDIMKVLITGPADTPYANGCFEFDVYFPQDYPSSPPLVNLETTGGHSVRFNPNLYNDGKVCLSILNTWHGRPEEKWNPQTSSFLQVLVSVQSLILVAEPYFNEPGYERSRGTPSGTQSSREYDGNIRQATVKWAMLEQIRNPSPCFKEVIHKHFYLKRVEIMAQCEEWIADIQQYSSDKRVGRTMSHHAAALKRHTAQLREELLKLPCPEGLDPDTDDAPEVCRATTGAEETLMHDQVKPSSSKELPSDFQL

Set 1
Target: RNA binding protein fox-1 homolog 2, RRM domain, GST-SBP tag (RBFOX2, Homo sapiens, UniProt O43251-10, residues 100-194)
Method: RNA Bind-n-Seq
Form: RNA
Medium: in vitro
Tested at: 365 nM
Setting: natural RNA segment, single round, ends assumed
Relative to: no-protein control
Reading: higher = stronger binding
Target sequence (chain): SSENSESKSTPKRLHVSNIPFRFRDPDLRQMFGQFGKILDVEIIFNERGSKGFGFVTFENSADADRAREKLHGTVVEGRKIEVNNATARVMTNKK
| Oligonucleotide | RBNS enrichment (R) |
| --- | --- |
| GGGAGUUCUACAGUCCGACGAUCUUUUAUUCACAUACAGUGAUGAAUCUUGCAUUGCAAAUUCAAAGUCUAAGUUAACAGUCUCCUAAAGUGACCACCUACAUUUCUUAUAAUCCAGGUAGUUCCUGUCAUGUUGGAAUUCUCGGGUGCCAA | 0.324 |
| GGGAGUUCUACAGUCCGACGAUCUAGCAAGCAGAGUAUCAUUCAUGCUGGGGCCAGAAUGAUGGCCGGUUGCCAGAUAUAACUGCUUUGGAGCAAAUCUCUUCUGUUUAGAGAGAUAGAAGUUAUGACAUAUGUGGAAUUCUCGGGUGCCAA | 0.324 |
| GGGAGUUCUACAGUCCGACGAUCGGGGGGCUAGGGCAGGAAGGGGACUGGAGGGCGGGUAGGACCUCCACAGCCCCUUCCCAAACAGCCUCUUAUCCCUUACACCCCUUUCCUCCUCUCUUCCCCCAUGGUAGUGGAAUUCUCGGGUGCCAA | 0.43 |
| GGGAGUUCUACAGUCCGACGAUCCCAUUUUUUGUGCCUUGUGCUGUUGGAUGGUAACGACCACUCACCAUGUAAACACAGUACCUCAGUUUUCUGUCCACAGCUGCAGUCGCUCUGUCCCUCGUGCUUCACUGUGGAAUUCUCGGGUGCCAA | 3.16 |
| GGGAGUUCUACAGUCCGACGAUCUUGAGGGUAGAAUUUAGCGUUUGGUUUUUACCUCCUAGCAUAUGCUGUUUGGUAUGUGAGGGUUUCAGUACAAAUGCUGCUGUCUAUUUCUGUGCACUUAACAAUGGAACUGGAAUUCUCGGGUGCCAA | 1.44 |
| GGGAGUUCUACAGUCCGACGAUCAUAGCAGAGGAUUUUAUACACAAAUAUAUUUUGUUUGUAAUGAGCCAUUCUCAAUAAAUAUUCUCACGUACAGUGGUAGCACCCUUUGUCUUGUCGUCAUGAAAGCCCUAUGGAAUUCUCGGGUGCCAA | 0.32 |
| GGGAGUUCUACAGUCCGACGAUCUGGAGAGGGGACCUGCGAAGGAAAACAGGGAGGAAGUGAGCGGUUUGAUCAGCCUGCUAUCACGGUGUUCUGGCUCUCUUAUUUAGCCAGGCGCUUAAGGGACAGAUACAUGGAAUUCUCGGGUGCCAA | 0.694 |
| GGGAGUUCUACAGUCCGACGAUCAGUUCAGCCUCUCUGUAAUGAAUCAAGAAAUGUAAAAGAGCUUUGAGACCCCAAGGGAAAGGAGAGAGUUGCUUCUCAUUUCUGAUUUUAUUGUGCUGUUACUCUGUCGAUGGAAUUCUCGGGUGCCAA | 0.913 |
| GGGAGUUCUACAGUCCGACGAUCGAUGUAAACCACGUGAGAGGAAAAUGUUAAUAAAAAAUGCAAAGCCCCAUCAUUUGCACAAAACUCACCCUGUGGUGUGGAUGUUUGUGUUCGCGGUGGUCCAGGGAAGCUGGAAUUCUCGGGUGCCAA | 0.26 |
| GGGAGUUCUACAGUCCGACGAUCUGCCUUUCUUCAUUGCUGAUUUUAAUCUGUAUCCUUUCACUGUAAUAAACUGUAACUAUGAGUGCAACACUUUGCUGAGUUCUGUGAGUCCUUCUAGUGAAUCACUGAACUGGAAUUCUCGGGUGCCAA | 0.488 |
| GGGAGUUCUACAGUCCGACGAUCCGCUGUGUCCAGAUGUUGGAAUGGUUUGAGCAUCAUGGUCACAUUUGCAUUGUUUUUGAACUAUUGGGACUUAGUACUUACGACUUCAUUAAAGAAAAUGGUUUUCUACCUGGAAUUCUCGGGUGCCAA | 5.49 |
| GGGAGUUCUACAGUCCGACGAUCAUUCAGCCUCAGUAGUAGCGAACUGCACUGCUGUUUGGUUUGGAGUACAAAUUAGACUUAUAGUCCUCCUGGAACUUGAGUUAUUAAAAUCAUAGGAAUAAAAUUAUGGGUGGAAUUCUCGGGUGCCAA | 0.307 |

Set 2
Target: Fragile X messenger ribonucleoprotein 1, C-terminal low-complexity region (Fmr1, Mus musculus, UniProt P35922)
Method: RNA Bind-n-Seq
Form: RNA
Medium: in vitro
Tested at: 200 nM
Setting: whole 134-nt RNA, ends assumed
Added: 150 mM KCl
Relative to: input library
Reading: higher = stronger binding
| Oligonucleotide | log2 enrichment |
| --- | --- |
| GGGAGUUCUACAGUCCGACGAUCCCUGUGCUACACAUCGUAUGUACCGAAUCGGGGAAAAAAGGGGAAAAAAGGAAAAAAGGGAAAGUAUUAUGUUACGCCGUUCGGAUCUGCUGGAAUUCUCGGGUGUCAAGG | -0.324 |
| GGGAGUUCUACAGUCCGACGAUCUGCUGCUUUCUGCCUUGGUGGCAGGCAGAGAACUGUCUCGUACUAGAAUUCAAGGAGGAAAGAAGAAGAAAUAAAAGAAGCUGCUCCAUUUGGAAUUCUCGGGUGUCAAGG | -1.15 |
| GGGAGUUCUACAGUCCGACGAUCGCAGGAAGUAAAAACAAAUGGAAAUGCUUCGGAUAGUGGCAGGGGUGGGAGUUGCUAAGGAAAGGGUGGGAUGGGAGUGGGUAAAGAGUUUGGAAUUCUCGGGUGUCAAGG | 0.0704 |
| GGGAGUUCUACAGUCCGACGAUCCAAGUCCUGUGCUACACAUCGUAUGUACCGAAUCGGAAAAAGGUUUGGAAAAAGGAAAGUAUUAUGUUACGCCGUUCGGAUCUGCACUUCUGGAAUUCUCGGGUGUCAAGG | -0.989 |
| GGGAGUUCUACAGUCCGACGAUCACCAUGCAGGUGGGCAUCUUUGGGAAGUGGGGCAAGGUGGGGAUAGGGAGGGGGGUAACACUUUGGGAACAGGUGGUCCCAGGUCGUUUCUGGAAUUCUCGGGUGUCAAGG | 0.787 |
| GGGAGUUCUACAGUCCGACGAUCCUCAAGUCCUGUGCUACACAUCGUAUGUACCGAAUCGGAGGUUUUUUUGGUGGAAAGUAUUAUGUUACGCCGUUCGGAUCUGCACUUCCAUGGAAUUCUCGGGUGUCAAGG | -0.305 |
| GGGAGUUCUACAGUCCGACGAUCUGAAUGCUGAGAAUGUUGCUGGUCACCAGAUUGCCUCUGAAACACAGAUCCUUGAGGGCUCUUUGGGAAUAUCUGUAAAGUCACACUGCAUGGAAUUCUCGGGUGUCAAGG | -0.0649 |
| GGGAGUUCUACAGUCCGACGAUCGCAGGAAGUAAAAACCAAUGGAAAUGCUUCGGAUAGUGGCAGGGGUGGGGGUUGCUAAGGAAAGGGUGGGAUGGGAGUGGGUAAAGAGUUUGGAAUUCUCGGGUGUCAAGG | 0.652 |
| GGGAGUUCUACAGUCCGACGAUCUGGCCCUGGUGGCAUGCGGGGAGGAAGAGGUGGCGUCAUGGAUCGUGGUGGUCCCGGUGGAAUGUUCAGAGGUGGCCGUGGUGGAGACAGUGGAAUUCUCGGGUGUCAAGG | 0.434 |
| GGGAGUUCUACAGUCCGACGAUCUCAAGUCCUGUGCUACACAUCGUAUGUACCGAAUCGGGAGGGAAAGGGUUUGGGAAAGUAUUAUGUUACGCCGUUCGGAUCUGCACUUCCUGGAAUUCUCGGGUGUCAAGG | 1.07 |
| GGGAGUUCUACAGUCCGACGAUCCCUCAAGUCCUGUGCUACACAUCGUAUGUACCGAAUCGGUUUGGUGGUUUGGAAAGUAUUAUGUUACGCCGUUCGGAUCUGCACUUCCAGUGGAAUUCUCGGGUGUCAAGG | -0.2 |
| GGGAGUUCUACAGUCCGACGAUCUGUGCUACACAUCGUAUGUACCGAAUCGGGGAAAAAAAGGGGAAAAAAAGGGAAAAAAAGGGAAAGUAUUAUGUUACGCCGUUCGGAUCUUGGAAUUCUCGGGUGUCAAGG | -0.299 |
| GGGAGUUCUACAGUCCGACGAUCCAAGUCCUGUGCUACACAUCGUAUGUACCGAAUCGGAAAAAAAGGAAAAAGGUGGAAAGUAUUAUGUUACGCCGUUCGGAUCUGCACUUCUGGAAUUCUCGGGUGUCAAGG | -0.668 |
| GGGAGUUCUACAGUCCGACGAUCUUGAUUGAUAUUACAGGCAAGAACCAGGAUGAAUGUGUGAUUGCUUUGCAUGACUGCAAUGGAGAUGUCAACAGAGCUAUCAAUGUUCUUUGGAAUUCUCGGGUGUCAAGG | -2.54 |

Set 3
Sequence: B1 (MEX3B RING domain)
Method: yeast two-hybrid
Medium: yeast
Setting: mostly zero background
Relative to: not given
Reading: higher = stronger interaction
B1: MEX3B RING domain (UniProt Q6ZN04); chain SGLRRKGSRDCSVCFESEVIAALVPCGHNLFCMECANRICEKSEPECPVCHTAVTQAIRIF
| target | lacZ reporter activity |
| --- | --- |
| UBE2T UBC core domain (UniProt Q9NPD8) | 0 |
| UBE2R2 UBC core domain (UniProt Q712K3) | 0 |
| BIRC6 UBC core domain (UniProt Q9NR09) | 0 |
| UBE2B UBC core domain (UniProt P63146) | 0 |
| UBE2J2 UBC core domain (UniProt Q8N2K1) | 0 |
| UBE2I UBC core domain (UniProt P63279) | 0 |
| UBE2C UBC core domain (UniProt O00762) | 0 |
| UBE2O UBC core domain (UniProt Q9C0C9) | 0 |
| UBE2Z UBC core domain (UniProt Q9H832) | 0 |

Set 4
Target: ABI1, truncated, D143A, DHFR fusion (Arabidopsis thaliana)
Method: DHFR PCA, deep sequencing
Medium: yeast
Setting: methotrexate growth selection, single substitutions
Added: (+)-ABA 0 µM
Relative to: wild-type fitted maximum
Reading: higher = stronger binding
Starting sequence: PYL1, truncated, DHFR fusion (Arabidopsis thaliana); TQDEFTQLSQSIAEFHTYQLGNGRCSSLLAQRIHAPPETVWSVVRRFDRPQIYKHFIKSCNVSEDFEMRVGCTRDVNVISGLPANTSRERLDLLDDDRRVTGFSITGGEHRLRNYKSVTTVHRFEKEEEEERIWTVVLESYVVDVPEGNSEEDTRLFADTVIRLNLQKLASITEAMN
| Change | relative binding score [%] |
| --- | --- |
| D48E | 3.49 |
| R163N | -15.4 |
| L94K | -6.1 |
| T120L | -8.43 |
| K126W | 7.33 |
| R24W | 0.907 |
| T6A | 43.8 |
| K54Y | -5.08 |
| L8F | 24.3 |
| L166A | 7.71 |
| Q10L | 3.12 |
| E129M | 13.2 |
| I52T | 24.7 |
| D48I | -0.902 |
| H16P | 2.85 |
| L166Y | 10.8 |
| E64M | 7.22 |
| V142Y | -5.16 |
| D153N | -7.4 |

Set 5
Target: JUND, bZIP domain (human)
Method: DHFR protein complementation
Medium: yeast
Setting: single substitutions, most at no-binding floor
Relative to: wild-type JUN-FOS pair
Reading: higher = stronger binding
Starting sequence: JUN, bZIP domain (human); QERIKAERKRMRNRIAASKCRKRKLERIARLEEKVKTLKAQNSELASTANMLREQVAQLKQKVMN
| Change | binding fitness [natural log] |
| --- | --- |
| N42L | -1.32 |
| V56E | -1.28 |
| N42E | -1.33 |
| L38T | -1.49 |
| L38Y | -1.22 |
| A49W | -1.47 |
| V56W | -1.26 |
| L38F | -1.42 |
| L31C | -1.43 |
| R53L | -1.27 |
| L45R | -1.42 |
| A29P | -1.36 |
| L45C | -1.42 |
| V35G | -1.47 |
| Q55N | -1.25 |
| N42C | -1.33 |
| A49H | -1.34 |
| L52A | -1.44 |
| N42I | -1.36 |
| E32D | -1.27 |

Set 6
Target: CCNE1, cyclin fold, Cln2 fusion (human)
Method: yeast growth competition, sequencing
Medium: yeast
Setting: weak parent motif
Relative to: not given
Reading: higher = stronger binding
Starting sequence: PKN2 docking peptide (human); VSAVQKLDFSDTM
| Change | normalised enrichment score |
| --- | --- |
| A3M | 0.435 |
| F9G | -0.146 |
| D11E | 0.58 |
| D11R | 0.628 |
| F9K | 0.263 |
| A3D | -0.451 |
| F9Y | 0.445 |
| V4M | 0.562 |
| F9R | 0.387 |
| V1F | 0.737 |
| T12H | 0.612 |
| F9P | -0.166 |
| L7V | -0.343 |
| S2I | 0.304 |
| M13I | 0.712 |
| T12R | 0.0765 |
| D8L | 1.7 |
| L7T | -0.468 |
| F9D | 0.245 |
| V4S | -0.16 |

Excerpt of the above (set 5):
| Change | binding fitness [natural log] |
| --- | --- |
| N42E | -1.33 |
| L38T | -1.49 |
| L38Y | -1.22 |
| A49W | -1.47 |
| V56W | -1.26 |
| L38F | -1.42 |
| L31C | -1.43 |
| R53L | -1.27 |
| L45R | -1.42 |
| A29P | -1.36 |
| L45C | -1.42 |
| V35G | -1.47 |
| Q55N | -1.25 |
| N42C | -1.33 |
| A49H | -1.34 |
| L52A | -1.44 |
